Assay results from different studies.
Organism: Acinetobacter baumannii

For CC[C@H](C)[C@H](NC(=O)[C@H](C)NC(=O)[C@H](CCCNC(=N)N)NC(=O)[C@H](CCCNC(=N)N)NC(=O)[C@H](CCCNC(=N)N)NC(=O)[C@H](CCCNC(=N)N)NC(=O)[C@H](CCCNC(=N)N)NC(=O)[C@@H](N)CCCNC(=N)N)C(=O)N[C@@H](CO)C(=O)NCC(=O)N[C@@H](CO)C(=O)N[C@@H](CC(C)C)C(=O)N[C@H](C(=O)N[C@H](C(=O)N[C@@H](CC(C)C)C(=O)N[C@@H](Cc1ccccc1)C(=O)NCC(=O)N[C@@H](Cc1ccc(O)cc1)C(N)=O)[C@@H](C)O)C(C)C, the MIC was 2 µM (broth microdilution; ATCC 17978; highest value reported).
CC[C@H](C)[C@H](NC(=O)[C@H](CC(C)C)NC(=O)[C@H](CCCNC(=N)N)NC(=O)[C@@H](N)CCCNC(=N)N)C(=O)N[C@@H](CCCNC(=N)N)C(=O)N[C@@H](CCCCN)C(=O)N[C@@H](CC(C)C)C(=O)N[C@@H](CCCCN)C(=O)NCC(=O)N1CCC[C@H]1C(=O)N[C@@H](CCCCN)C(=O)N[C@H](C(=O)N[C@@H](Cc1ccc(O)cc1)C(=O)N[C@@H](CC(C)C)C(=O)N[C@@H](Cc1ccc(O)cc1)C(=O)N[C@@H](Cc1ccccc1)C(=O)N[C@@H](CCCCN)C(=O)N[C@@H](CC(C)C)C(=O)N[C@@H](CCC(N)=O)C(=O)N[C@@H](CC(C)C)C(=O)N[C@@H](CC(C)C)C(=O)N[C@@H](CCCCN)C(=O)N[C@@H](CCCCN)C(N)=O)[C@@H](C)CC has an MIC of 8 µM (KCCM 40203, Mueller-Hinton broth; 24 h).
The MIC of CC[C@H](C)[C@H](NC(=O)CNC(=O)[C@H](CC(=O)O)NC(=O)[C@H](CCCNC(=N)N)NC(=O)[C@@H](NC(=O)[C@H](CC(N)=O)NC(=O)[C@H](CCCNC(=N)N)NC(=O)CNC(=O)[C@@H](NC(=O)[C@H](CCCCN)NC(=O)[C@H](CCC(=O)O)NC(=O)[C@@H](NC(=O)[C@H](CCCCN)NC(=O)[C@H](CCCCN)NC(=O)[C@H](Cc1ccccc1)NC(=O)[C@@H](NC(=O)[C@H](CCCCN)NC(=O)[C@H](Cc1c[nH]c2ccccc12)NC(=O)[C@@H](N)CCCNC(=N)N)[C@@H](C)CC)[C@@H](C)CC)C(C)C)C(C)C)C(=O)N[C@H](C(=O)N[C@@H](CCCCN)C(=O)N[C@@H](C)C(=O)NCC(=O)NCC(=O)N[C@@H](C)C(=O)N[C@H](C(=O)N[C@@H](C)C(=O)N[C@H](C(=O)N[C@H](C(=O)NCC(=O)N[C@@H](CCC(N)=O)C(=O)N[C@@H](C)C(=O)N[C@@H](C)C(=O)N[C@H](C(=O)N[C@H](C(=O)N[C@H](C(=O)N[C@@H](CCCCN)C(N)=O)C(C)C)C(C)C)[C@@H](C)O)C(C)C)C(C)C)C(C)C)[C@@H](C)CC is reported as 2 µM (KCCM 40203, Mueller-Hinton broth; 16 h, 37 °C; growth inhibition over 99%).
CC[C@H](C)[C@H](NC(=O)[C@H](CC(C)C)NC(=O)[C@H](CCCCN)NC(=O)[C@H](CC(C)C)NC(=O)CNC(=O)[C@@H](NC(=O)[C@H](CO)NC(=O)[C@@H](NC(=O)[C@@H](NC(=O)[C@H](CCC(N)=O)NC(=O)[C@H](Cc1c[nH]c2ccccc12)NC(=O)[C@H](CCCNC(=N)N)NC(=O)[C@H](CC(N)=O)NC(=O)[C@H](CCCNC(=N)N)NC(=O)[C@H](CCCNC(=N)N)NC(=O)[C@@H](NC(=O)[C@H](Cc1ccccc1)NC(=O)[C@H](CCCNC(=N)N)NC(=O)CNC(=O)[C@H](C)NC(=O)[C@H](CCCNC(=N)N)NC(=O)[C@H](CCCNC(=N)N)NC(=O)[C@H](CCCCN)NC(=O)[C@H](Cc1ccccc1)NC(=O)[C@H](CCCNC(=N)N)NC(=O)CNC(=O)[C@H](Cc1c[nH]c2ccccc12)NC(=O)[C@H](CCCNC(=N)N)NC(=O)CNC(=O)[C@H](CCCNC(=N)N)NC(=O)[C@@H](N)[C@@H](C)O)[C@@H](C)CC)[C@@H](C)CC)[C@@H](C)CC)[C@@H](C)O)C(=O)NCC(=O)O gave an MIC of 1.2 µM (ATCC 19606; highest concentration 50 µM).
For CC(=O)N[C@@H](CCCCN)C(=O)N[C@@H](CCCCN)C(=O)N[C@@H](CC(C)C)C(=O)N[C@@H](CC(C)C)C(=O)N[C@@H](CCCCN)C(=O)N[C@@H](CC(C)C)C(=O)N[C@@H](C)C(=O)N[C@@H](CCCCN)C(=O)N[C@@H](CCCCN)C(=O)N1CCC[C@H]1C(=O)N[C@@H](CC(C)C)C(=O)N[C@@H](CCCCN)C(=O)N[C@@H](CC(C)C)C(=O)N[C@@H](CC(C)C)C(=O)N[C@@H](CCCCN)C(N)=O, the MIC was over 80 µM (broth microdilution; ATCC 17978; 18 h, 37 °C, compound alone).
CC[C@H](C)[C@H](NC(=O)CNC(=O)[C@H](CC(=O)O)NC(=O)[C@H](CCCNC(=N)N)NC(=O)[C@@H](NC(=O)[C@H](CC(N)=O)NC(=O)[C@H](CCCNC(=N)N)NC(=O)CNC(=O)[C@@H](NC(=O)[C@H](CCCCN)NC(=O)[C@H](CCC(=O)O)NC(=O)[C@@H](NC(=O)[C@H](CCCCN)NC(=O)[C@H](CCCCN)NC(=O)[C@H](Cc1ccccc1)NC(=O)[C@@H](NC(=O)[C@H](CCCCN)NC(=O)[C@H](Cc1c[nH]c2ccccc12)NC(=O)[C@@H](N)CCCNC(=N)N)[C@@H](C)CC)[C@@H](C)CC)C(C)C)C(C)C)C(=O)N[C@H](C(=O)N[C@@H](CCCCN)C(=O)N[C@@H](C)C(=O)NCC(=O)N1CCC[C@H]1C(=O)N[C@@H](C)C(=O)N[C@H](C(=O)N[C@@H](C)C(=O)N[C@H](C(=O)N[C@H](C(=O)NCC(=O)N[C@@H](CCC(N)=O)C(=O)N[C@@H](C)C(=O)N[C@@H](C)C(=O)N[C@H](C(=O)N[C@H](C(=O)N[C@H](C(=O)N[C@@H](CCCCN)C(N)=O)C(C)C)C(C)C)[C@@H](C)O)C(C)C)C(C)C)C(C)C)[C@@H](C)CC has an MIC of 1 µM (broth microdilution, MH medium; KCCM 40203; 16 h, 37 °C, growth inhibition over 99%).
For N=C(N)NCCC[C@H](NC(=O)[C@H](Cc1c[nH]c2ccccc12)NC(=O)[C@@H](N)CCCNC(=N)N)C(=O)N[C@@H](Cc1c[nH]c2ccccc12)C(=O)N[C@@H](CCC(N)=O)C(=O)N[C@@H](Cc1ccccc1)C(=O)N[C@@H](CCC(N)=O)C(=O)N[C@@H](Cc1ccccc1)C(=O)N[C@@H](CCCCN)C(N)=O, the MIC was 39 µM (broth microdilution, optical density).
CC[C@H](C)[C@H](NC(=O)[C@H](CCCCN)NC(=O)[C@H](Cc1c[nH]c2ccccc12)NC(=O)[C@H](Cc1c[nH]c2ccccc12)NC(=O)[C@H](CCCCN)NC(=O)[C@H](CCCCN)NC(=O)[C@H](CCCCN)NC(=O)[C@H](Cc1c[nH]c2ccccc12)NC(=O)[C@H](CCCCN)NC(=O)[C@H](CCCCN)NC(=O)[C@H](Cc1c[nH]c2ccccc12)NC(=O)[C@H](CCCCN)NC(=O)[C@H](CCCCN)NC(=O)[C@@H](NC(=O)[C@@H](NC(=O)[C@H](CCCCN)NC(=O)[C@@H](N)CCCNC(=N)N)[C@@H](C)CC)[C@@H](C)CC)C(=O)N[C@@H](Cc1c[nH]c2ccccc12)C(=O)N[C@@H](Cc1c[nH]c2ccccc12)C(=O)N[C@@H](CCCCN)C(=O)NCCOCCOCC(N)=O gave an MIC of 1.9 µg/mL (broth microdilution; 18).
For CC[C@H](C)[C@H](NC(=O)CNC(=O)[C@H](CC(=O)O)NC(=O)[C@H](CCCNC(=N)N)NC(=O)[C@@H](NC(=O)[C@H](CC(N)=O)NC(=O)[C@H](CCCNC(=N)N)NC(=O)CNC(=O)[C@@H](NC(=O)[C@H](CCCCN)NC(=O)[C@H](CCC(=O)O)NC(=O)[C@@H](NC(=O)[C@H](CCCCN)NC(=O)[C@H](CCCCN)NC(=O)[C@H](Cc1ccccc1)NC(=O)[C@@H](NC(=O)[C@H](CCC(=O)O)NC(=O)[C@H](Cc1c[nH]c2ccccc12)NC(=O)[C@@H](N)CCCNC(=N)N)[C@@H](C)CC)[C@@H](C)CC)C(C)C)C(C)C)C(=O)N[C@H](C(=O)N[C@@H](CCCCN)C(=O)N[C@@H](C)C(=O)NCC(=O)N1CCC[C@H]1C(=O)N[C@@H](C)C(=O)N[C@H](C(=O)N[C@@H](C)C(=O)N[C@H](C(=O)N[C@H](C(=O)NCC(=O)N[C@@H](CCC(N)=O)C(=O)N[C@@H](C)C(=O)N[C@@H](C)C(=O)N[C@H](C(=O)N[C@H](C(=O)N[C@H](C(=O)N[C@@H](CCCCN)C(N)=O)C(C)C)C(C)C)[C@@H](C)O)C(C)C)C(C)C)C(C)C)[C@@H](C)CC, the MIC was over 64 µM (KCCM 40203, Mueller-Hinton broth; 16 h, 37 °C; growth inhibition over 99%).
C[C@@H](O)[C@H]1C(=O)N2C(C(=O)O)=C(S[C@@H]3CN[C@H](C(=O)N(C)C)C3)[C@H](C)[C@H]12 gave an MIC of 32 µg/mL (broth microdilution; carbapenem-resistant clinical isolate).
The MIC of C[C@@H](O)[C@H]1C(=O)N2C(C(=O)O)=C(S[C@@H]3CN[C@H](C(=O)N(C)C)C3)[C@H](C)[C@H]12 is reported as over 8 µg/mL (1189854, multidrug-resistant).
CC[C@H](C)[C@H](NC(=O)[C@H](CC(C)C)NC(=O)[C@H](CCCNC(=N)N)NC(=O)[C@@H](N)CCCNC(=N)N)C(=O)N[C@@H](CCCNC(=N)N)C(=O)N[C@H](C(=O)N[C@@H](CC(=O)O)C(=O)N[C@H](C(=O)NCC(=O)N1CCC[C@H]1C(=O)N[C@H](C(=O)N[C@H](C(=O)N[C@@H](Cc1ccc(O)cc1)C(=O)N[C@@H](CC(=O)O)C(=O)N[C@@H](Cc1ccc(O)cc1)C(=O)N[C@@H](Cc1ccccc1)C(=O)N[C@@H](CCCCN)C(=O)N[C@@H](CC(=O)O)C(=O)N[C@@H](CCC(N)=O)C(=O)N[C@@H](CC(C)C)C(=O)N[C@@H](CC(C)C)C(=O)N[C@@H](CCCCN)C(=O)N[C@@H](CCCCN)C(N)=O)[C@@H](C)CC)[C@@H](C)CC)[C@@H](C)O)[C@@H](C)O gave an MIC of 128 µM (KCCM 40203, Mueller-Hinton broth; 24 h).
Cc1cc(-c2cn[nH]c2-c2cccc(OCc3cccc(C#N)c3)c2)cc(C)n1 has an MIC of 32 µg/mL (broth microdilution; ATCC 19606 Δ3 efflux-deficient).
The MIC of CC[C@H](C)[C@H](NC(=O)[C@H](CC(C)C)NC(=O)[C@H](CCCNC(=N)N)NC(=O)[C@@H](N)CCCNC(=N)N)C(=O)N[C@@H](CCCNC(=N)N)C(=O)N[C@@H](CCCCN)C(=O)N[C@@H](CC(C)C)C(=O)N[C@@H](CCCCN)C(=O)NCC(=O)N1CCC[C@H]1C(=O)N[C@H](C(=O)N[C@H](C(=O)N[C@@H](Cc1ccc(O)cc1)C(=O)N[C@@H](CC(C)C)C(=O)N[C@@H](Cc1ccc(O)cc1)C(=O)N[C@@H](Cc1ccccc1)C(=O)N[C@@H](CCCCN)C(=O)N[C@@H](CC(C)C)C(=O)N[C@@H](CCC(N)=O)C(=O)N[C@@H](CC(C)C)C(=O)N[C@@H](CC(C)C)C(=O)N[C@@H](CCCCN)C(=O)N[C@@H](CCCCN)C(N)=O)[C@@H](C)CC)[C@@H](C)CC is reported as 32 µM (ATCC BAA1605, Mueller-Hinton broth; 24 h).
C[C@@H](O)[C@H]1C(=O)N2C(C(=O)O)=C(SCCN=CN)C[C@H]12 has an MIC of over 64 µg/mL (carbapenem-resistant clinical isolate).
